Measurements from different studies.
Every numbered part comes from another study and shows a few of its results, in no order.

Set 1 — method: aptamer microarray, sandwich; molecule type: DNA with 2'F-ANA; matrix: in vitro; concentration: 200 nM; added: Cy3 exosite-II aptamer, 400 nM; reading: higher = stronger binding; sequence: GGTTGGTGTGGTTGG
Target: Prothrombin, mature alpha-thrombin (F2, Homo sapiens, UniProt P00734)
Setting: whole 15-mer aptamer, many near background
Modification | mean fluorescence intensity [a.u.]
2'F-ANA at 1 4 7 9 13 14 15 | 49.3
2'F-ANA at 1 4 7 11 12 13 14 | 121
2'F-ANA at 4 7 8 12 14 | 220
2'F-ANA at 2 8 9 10 11 13 14 | 80.9
2'F-ANA at 1 3 4 5 6 7 8 9 11 12 | 101
2'F-ANA at 1 4 5 6 7 8 10 12 15 | 60.6
2'F-ANA at 1 4 6 7 8 9 10 11 13 | 70.2
2'F-ANA at 1 3 7 8 9 13 14 | 120
2'F-ANA at 1 3 4 9 15 | 189
2'F-ANA at 3 5 6 9 11 12 14 | 66.8
2'F-ANA at 1 3 5 6 7 8 9 10 11 12 14 | 47.9
2'F-ANA at 2 4 5 6 9 12 13 14 | 61.5
2'F-ANA at 1 6 7 11 12 15 | 271
2'F-ANA at 1 2 3 5 8 9 10 11 14 15 | 61
2'F-ANA at 1 2 6 9 10 13 | 50.9
2'F-ANA at 1 4 5 6 11 12 14 | 45.3
2'F-ANA at 4 7 8 9 10 11 12 13 15 | 95.5
2'F-ANA at 2 4 5 6 10 12 15 | 58
2'F-ANA at 1 2 5 9 10 11 13 15 | 48.1

Set 2 — method: RNA Bind-n-Seq; molecule type: RNA; matrix: in vitro; concentration: 365 nM; reference: no-protein control; reading: higher = stronger binding
Target: RNA binding protein fox-1 homolog 2, RRM domain, GST-SBP tag (RBFOX2, Homo sapiens, UniProt O43251-10, residues 100-194)
Setting: natural RNA segment, single round, ends assumed
Shared flanks, not repeated: GGGAGUUCUACAGUCCGACGAUC … UGGAAUUCUCGGGUGCCAA
Sequence | RBNS enrichment (R)
UCUGCCAAGUUGGCCCUCCCUGCUCUCGAGUGUUCCUUUCUUGAGACCUCAGGGUGCCCAGGUCCUGCAUCUCUCUAUUGCCCCACUUCCUGCUAUAAUCCCUGAUGAAA | 0.772
GCCAAAAAAUAAUAAUGAUUUAAUUUAUGACCUUAUGUUGAGACUAAUUUCACAUCUUAUUUUGCAGUCAUUUACAGUGAAACAAUGUUCCAGCUAGCUUUAAAAGCUAU | 0.895
CCUCUCCUUCCACCCCUCAUUUCCUUUUUGCACACAUUACAGGUGGUGUGUUCUGUGAUAAUGAAAAGCAUCAGAAAAGCUUUUGUACUUUGUGGUUUCCUCUAUUUUGA | 1.17
UACAUAAUCCGACCUCAUAGCAGCAUUACAUUCUUUGCCGUGAUAAACAUUCCACUCCUGCUUUCCUAAGGAUGAAACAGUGAUAAUGUGAACUCAAAUGAGGUUUCCUG | 0.393
CACACAGUUCGGAAAGACUACAGAUCUUAACGAUCAGCCUUCGCUCCUAAUGUAUUUGUUGGUUUCAUUUCAUUUUCAUUUUGCACUUGCACUAAAUUGAACAUGACCCU | 0.633
UUGGCACGGUGCUGCAUCCUUCUACUGCUCCCUCCAGGUCUGGGGGCUUUUAUCCACCUUGAAUCCCUAUCCUCCUCUUUGUAGUUGUCGGUCUCACUGAUAACAGCUCC | 0.724
UUCCGAUGAAUUCUUAUCCCCUGCCCCUUCCUUUAAAAAACUUAGUGACAAAAUAGACAAUUUGCACAUCUUGGCUAUGUAAUUCUUGUAAUUUUUAUUUAGGAAGUGUU | 1.71
GGCAUGCACCACCAUGCCCGGCUAAUUUUUUUGUGUUUUUAGUAGAGAUGGGGUUUCACCGUGCUGGCCAGGCUGGUCUAGAACUCCUGACUGCAAAUGAUCAGCCCGCC | 0.847

Set 3 — method: EMSA with sequencing; molecule type: double-stranded DNA, one strand shown; matrix: in vitro; concentration: 10 and 20 nM; reference: negative control set to 0; reading: higher = stronger binding
Target: Hepatocyte nuclear factor 3-alpha (Foxa1, Mus musculus, UniProt P35582, residues 1-468, full length assumed)
Setting: whole designed probe, mean of two concentrations, ends assumed
Shared flanks, not repeated: GTGAGCGGTGCCCATTGATGGGGAAC … TTTCACTGGGATCGTGGGGAC
Target sequence (chain): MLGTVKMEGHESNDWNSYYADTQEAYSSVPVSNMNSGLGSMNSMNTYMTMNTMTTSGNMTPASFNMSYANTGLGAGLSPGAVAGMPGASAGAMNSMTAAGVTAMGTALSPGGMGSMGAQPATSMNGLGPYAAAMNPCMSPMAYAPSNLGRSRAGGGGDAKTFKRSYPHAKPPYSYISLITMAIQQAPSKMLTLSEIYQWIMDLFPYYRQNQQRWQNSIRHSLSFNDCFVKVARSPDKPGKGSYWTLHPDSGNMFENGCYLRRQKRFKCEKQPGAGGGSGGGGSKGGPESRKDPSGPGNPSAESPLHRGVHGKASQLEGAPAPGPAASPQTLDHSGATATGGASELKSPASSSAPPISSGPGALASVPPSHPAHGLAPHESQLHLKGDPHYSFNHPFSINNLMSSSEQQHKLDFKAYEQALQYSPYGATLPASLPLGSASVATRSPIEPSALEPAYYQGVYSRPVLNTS
Sequence | normalised bound fraction [ratio]
CCAATGGGGTAGGTCAGCCCCAGTGAACTCTCAAATGACCACTGAAGGAGGAAGTGAGTGCAGAGTGTGATACCACTCACATCCCAGCCCAGACTGTTTGCTCAGCTGGGAGGAGTGTTGCAATTCTTCTTCCTGCAGAGATAACACCCCTTCTCATGGCTTCAGGCATCACCTATCTCCTCTAGGCTGCGCT | 0.192
TTATATCTAGGCTACAGCATGGAGATAATTGATACAAATATTTTCTTATCATCATGGTCCTCAAAGAAAGTACCAGGCCTAATTTGCAATCTAAGTAAACATAAAAAGAAAGTTGTTTAGTAAAGCAATTTATTTCATAAGTCACTATTTCTTTCACCATAGCCATATACTATCTTATGCTTAGTAATGAATT | 0.446
TTTCCAGCCCTTAGTTTCTGGCATTTAACCTGACTCTGGTCCCTGAATGGCATGGGAGTGCTTTCAACCACAGGTTTCCACATTCATGCCACTTGTTTGCTTTTCTGTCACATTCTGATCTACAGAGATCTTTATTTGCTTTGTGTTTCCAATGGAGAAAGAGCTTGGGAAGGGAGGATCCTAATTGTCTAAA | 0.497
CACATGTCAGTAATAGTGCTGTATTACTGACCTAGAAATTTAATTGTTCCGTGCTCTTAAGGTTTCAGTATTAAATGTGGAAATTATTTAAGAGCAATCTAATTGATATTACTGCAGCTTCATAAAGAAGAATATCAAACTGTGGTCTCTGTTTTTTGTCTTTCAAAGCAAGAAGTGGTGGAGAAATATGAAA | 0.125
GAAGGAAATAATGGAGCCAACCATGCATATAACCTCAGGGAGAACATTCTAGGTAGAGGGAACAGCAAGTGCAAAGGCCCTGAAGTGGGGGTTTGTTTACCTTCGTTGCACAATTGCACACAGGCCAGTACAATTGGAATGGATGGGAAATGTAAAAGAGAGAAGTTGAAAAGGCCAGGTGCAGTGGCTCATG | 0.41

Set 4 — method: RNA Bind-n-Seq; molecule type: RNA; matrix: in vitro; concentration: 200 nM; setting: whole 134-nt RNA, ends assumed; added: 150 mM KCl; reference: input library; reading: higher = stronger binding
Target: Fragile X messenger ribonucleoprotein 1, C-terminal low-complexity region (Fmr1, Mus musculus, UniProt P35922)
Shared flanks, not repeated: GGGAGUUCUACAGUCCGACGAUC … UGGAAUUCUCGGGUGUCAAGG
Sequence | log2 enrichment
UGGGAGGUGGAUUUUGUUUAUUUUUUUAGCUCAUUUCCAGGGGUGGGAAUUUUUUUUUAAUAUGUCUCAUGAAUAAAGUUGUUUUUGAAA | 0.213
CUCAAGUCCUGUGCUACACAUCGUAUGUACCGAAUCGGGGAGGGAGGGAGGGGAAAGUAUUAUGUUACGCCGUUCGGAUCUGCACUUCCA | 1.24
GUGCUACACAUCGUAUGUACCGAAUCGGGGUUUUUUUGGGGAAAAAAAGGGGUUUUUUUGGGGAAAGUAUUAUGUUACGCCGUUCGGAUC | 0.459
UCAAGUCCUGUGCUACACAUCGUAUGUACCGAAUCGGUUUUUGGUUUGGAAAGGAAAGUAUUAUGUUACGCCGUUCGGAUCUGCACUUCC | -0.673
CCUGUGCUACACAUCGUAUGUACCGAAUCGGGGAAAAAAAGGAAAAAAAGGGAAAAAAAGGAAAGUAUUAUGUUACGCCGUUCGGAUCUG | -0.799
CACAGACAACACGCACCCACACAGACACAGAGGGAAGGGGUUGGGAUGGGGACAGGGUGCACAGCAGGGCAGGGUAGGACCCCAGCCCCU | 1.25
CACAGACAACACGCACCCACACAGACACAGAGGGAAGGGGUUGGGAUGGGGACAGGGUGCACAGCAGGGCGGGGUAGGACCCCAGACCCU | 1.26
AAGUCCUGUGCUACACAUCGUAUGUACCGAAUCGGGUUUUGGUUUUGGGGUUUUGGAAAGUAUUAUGUUACGCCGUUCGGAUCUGCACUU | -0.605
CAAGUCCUGUGCUACACAUCGUAUGUACCGAAUCGGGUUUGGGGUUUGGGUUUGGGAAAGUAUUAUGUUACGCCGUUCGGAUCUGCACUU | 0.915
